Published values collected from several papers.
A part holds a random share of what one study measured. Positions count from the first letter of the parent shown.

Set 1
Target: Ras GTPase-activating protein-binding protein 1, full length (G3BP1, Homo sapiens, UniProt Q13283)
UniProt Q13283, sequence (whole entry, looked up): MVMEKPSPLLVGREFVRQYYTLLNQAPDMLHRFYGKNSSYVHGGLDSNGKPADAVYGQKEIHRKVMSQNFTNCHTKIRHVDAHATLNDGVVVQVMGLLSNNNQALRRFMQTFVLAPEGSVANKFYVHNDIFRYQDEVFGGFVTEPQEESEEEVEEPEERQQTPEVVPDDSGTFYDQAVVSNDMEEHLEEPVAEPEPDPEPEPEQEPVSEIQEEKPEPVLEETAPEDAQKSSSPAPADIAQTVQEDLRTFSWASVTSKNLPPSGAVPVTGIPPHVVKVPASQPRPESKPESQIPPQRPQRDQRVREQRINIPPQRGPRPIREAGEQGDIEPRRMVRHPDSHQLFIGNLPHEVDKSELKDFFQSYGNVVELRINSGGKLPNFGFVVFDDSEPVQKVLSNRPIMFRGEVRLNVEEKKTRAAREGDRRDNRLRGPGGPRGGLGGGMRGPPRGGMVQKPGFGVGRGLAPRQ
Method: RNA Bind-n-Seq
Form: RNA
Medium: in vitro
Tested at: 200 nM
Setting: whole 134-nt RNA, ends assumed
Added: 150 mM LiCl
Baseline: input library
Reading: higher = stronger binding
Measurement: log2 enrichment
All molecules: 7-deaza-guanosine replaces G
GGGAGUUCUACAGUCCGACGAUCGCAGGAAGUAAAAACAAAUGGAAAUGCUUCGGAUAGUGGCAGGGGUGGGGGUUGCUAAGGAAAGGGUGGGAUGUGAGUGGGUAAAGAGUUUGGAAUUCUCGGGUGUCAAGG: -0.119
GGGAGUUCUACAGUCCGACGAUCUCAAGUCCUGUGCUACACAUCGUAUGUACCGAAUCGGGAGGGAGGGAAAAAGGGAAAGUAUUAUGUUACGCCGUUCGGAUCUGCACUUCCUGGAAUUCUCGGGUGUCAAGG: -0.0168
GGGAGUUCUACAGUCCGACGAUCUAACUUUAGAGGAGGAUCUGAUGGAUAUGGCGGUGGACGUGGAUUUGGGGAUGGCUAUAAUGGGUAUGGAGGAGGACCUGGAGGUGGCAAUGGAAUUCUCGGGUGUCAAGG: -0.083
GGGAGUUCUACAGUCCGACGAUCCACAGACAACACGCACCCACACAGACACAGAGGGAAGGGGUUGGGAAGGGGACAGGGUGCACAGCAGGGCGGGGUAGGACCCCAGCCCCUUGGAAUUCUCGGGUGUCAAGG: 0.289
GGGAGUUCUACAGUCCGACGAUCUCCUCAAGUCCUGUGCUACACAUCGUAUGUACCGAAUCGGUUUGGUGGUGGAAAGUAUUAUGUUACGCCGUUCGGAUCUGCACUUCCAGCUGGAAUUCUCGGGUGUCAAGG: 0.187
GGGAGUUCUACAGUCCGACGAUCCAAGUCCUGUGCUACACAUCGUAUGUACCGAAUCGGUUUGGAAAAAGGAAAAAGGAAAGUAUUAUGUUACGCCGUUCGGAUCUGCACUUCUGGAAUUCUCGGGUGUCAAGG: -0.927
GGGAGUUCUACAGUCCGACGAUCCGGCAGUAGCAGCAGCGCCGGGUCCCGUGCGGAGGUGCUCCUCGCAGAGUUGUUUCUCGAGCAGCGGCAGUUCUCACUACAGCGCCAGGAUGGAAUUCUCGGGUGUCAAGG: -0.635
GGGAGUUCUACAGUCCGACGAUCUGGCCCUGGUGGCAUGCGGGGAGGAAGAGGUGGCCUCAUGGAUCGUGGUGGUCCCGGUGGAAUGUUCAGAGGUAGCCGUGGUGGAGACAGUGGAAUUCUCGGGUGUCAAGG: 0.147

Set 2
Target: CCNB1, cyclin fold, Cln2 fusion (human)
Method: yeast growth competition, sequencing
Medium: yeast
Setting: weak parent motif
Baseline: not given
Reading: higher = stronger binding
Measurement: normalised enrichment score
Starting sequence: SLBP docking peptide (human); ARYKRKLLINDFG
K6C: 1.45
L7P: 0.285
K4W: 0.827
A1H: 1.02
L7E: 0.507
G13C: 0.65

Set 3
Target: Interferon regulatory factor 5, full length, phosphomimetic (IRF5, Homo sapiens, UniProt Q13568-2, residues 1-514, S451D/S453D/S456D/S462D)
Method: protein-binding microarray
Form: double-stranded DNA, one strand shown
Medium: in vitro
Tested at: 940 nM top
Setting: 60-bp whole probe
Added: salmon DNA 0.4 mg/ml
Baseline: random background probes
Reading: higher = stronger binding
Measurement: fitted relative affinity
All sequences stand within: GCCTAGCAC … GTCTTGATTCGCTTGACGCTGCTG
TTAGGTTCCCTTTTCCTTTTGTGCTAG: 0.555 z-score
GACGGACTGCTTCTCGTGACGTGCTAG: -0.32 z-score
TTAGATTTGGGGTTTCGATTAGTGCTA: 5.96 z-score
GACGATATCAGTTTCGAGACGTGCTAG: 4.4 z-score
TAAGGTTTCGACTATCGGTTAGTGCTA: 6.82 z-score
TCACCTTTCGGAATACCACTGTGCTAG: 1.7 z-score
CTGTGTACATCTCTCTTAAAGTGCTAG: 0.433 z-score
GACGGTTTCATACTGCTGACGTGCTAG: 3.39 z-score
TTAGGTCTCGATTTCGGTTAGTGCTAG: 4.4 z-score
TTAGGTTTTGGTTTCGGTTAGTGCTAG: 12.3 z-score

Further values, each from its own experiment
PhoQ, residues 284 288 289 292 302 303 SSYNSA
fold induction (PhoP, residues 12 14 15 18 19 NIMAP (Escherichia coli, UniProt P23836); Sort-seq, item: YFP reporter; E. coli; PhoQ-PhoP variant library, added: 10 µM Mg2+; baseline: high Mg2+ state, higher = stronger signaling): 0.752

Some of these lines once more (set 1):
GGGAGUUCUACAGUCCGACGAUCUCAAGUCCUGUGCUACACAUCGUAUGUACCGAAUCGGGAGGGAGGGAAAAAGGGAAAGUAUUAUGUUACGCCGUUCGGAUCUGCACUUCCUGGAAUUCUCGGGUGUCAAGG: -0.0168
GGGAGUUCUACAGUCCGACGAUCGCAGGAAGUAAAAACAAAUGGAAAUGCUUCGGAUAGUGGCAGGGGUGGGGGUUGCUAAGGAAAGGGUGGGAUGUGAGUGGGUAAAGAGUUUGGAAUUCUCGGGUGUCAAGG: -0.119
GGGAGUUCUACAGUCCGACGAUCCAAGUCCUGUGCUACACAUCGUAUGUACCGAAUCGGUUUGGAAAAAGGAAAAAGGAAAGUAUUAUGUUACGCCGUUCGGAUCUGCACUUCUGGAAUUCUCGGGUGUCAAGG: -0.927
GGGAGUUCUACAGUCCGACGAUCCGGCAGUAGCAGCAGCGCCGGGUCCCGUGCGGAGGUGCUCCUCGCAGAGUUGUUUCUCGAGCAGCGGCAGUUCUCACUACAGCGCCAGGAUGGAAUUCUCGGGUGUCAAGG: -0.635
